Measured values collected from several papers.
Every numbered part comes from another study and shows a few of its results, in no order.

Study 1 — technique: universal PBM; molecule type: double-stranded DNA, one strand shown; matrix: in vitro; tested at: 600 nM; direction: higher = stronger binding
Target: Sal-like protein 4, full length isoform A (SALL4, Homo sapiens, UniProt Q9UJQ4, residues 1-1053)
Chain of UniProt Q9UJQ4 (whole entry, looked up): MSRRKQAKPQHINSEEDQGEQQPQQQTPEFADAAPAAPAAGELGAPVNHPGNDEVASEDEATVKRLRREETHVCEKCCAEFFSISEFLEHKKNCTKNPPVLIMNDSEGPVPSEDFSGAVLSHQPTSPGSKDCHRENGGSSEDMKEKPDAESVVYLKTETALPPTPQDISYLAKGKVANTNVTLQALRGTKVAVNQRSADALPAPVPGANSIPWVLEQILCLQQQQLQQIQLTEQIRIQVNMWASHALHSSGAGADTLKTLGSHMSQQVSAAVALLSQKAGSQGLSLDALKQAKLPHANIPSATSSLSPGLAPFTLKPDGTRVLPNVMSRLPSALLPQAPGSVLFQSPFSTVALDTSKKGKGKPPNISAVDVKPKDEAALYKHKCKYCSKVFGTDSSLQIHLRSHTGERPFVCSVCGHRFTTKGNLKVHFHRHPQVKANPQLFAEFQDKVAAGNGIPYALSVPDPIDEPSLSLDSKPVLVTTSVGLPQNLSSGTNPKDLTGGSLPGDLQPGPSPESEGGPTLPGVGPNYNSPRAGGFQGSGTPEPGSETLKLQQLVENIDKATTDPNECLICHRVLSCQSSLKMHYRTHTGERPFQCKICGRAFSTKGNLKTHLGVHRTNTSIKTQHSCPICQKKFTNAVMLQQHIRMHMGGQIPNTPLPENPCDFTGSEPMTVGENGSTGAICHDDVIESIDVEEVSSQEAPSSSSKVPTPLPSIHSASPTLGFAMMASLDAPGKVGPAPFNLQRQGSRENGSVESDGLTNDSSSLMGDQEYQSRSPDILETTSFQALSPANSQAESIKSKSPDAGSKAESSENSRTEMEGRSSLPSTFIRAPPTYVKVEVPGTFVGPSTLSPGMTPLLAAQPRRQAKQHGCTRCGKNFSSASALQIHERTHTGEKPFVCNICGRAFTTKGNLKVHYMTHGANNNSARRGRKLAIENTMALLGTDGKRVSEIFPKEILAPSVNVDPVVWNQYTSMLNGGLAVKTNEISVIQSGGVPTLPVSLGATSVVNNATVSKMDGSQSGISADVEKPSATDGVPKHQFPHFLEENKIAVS
Setting: 8-mer, flanks averaged, mean of replicates
The E-score of `AAACGTTA` is reported as 0.185.
`GGTTCCTA` gave an E-score of -0.0965.
The E-score of `CGCTTGGC` is reported as -0.261.
`CCAGAAAA` gave an E-score of 0.0775.
`CCAATTGC` gave an E-score of -0.0284.
`ACGCTAGT` has an E-score of -0.102.

Study 2 — technique: protein binding microarray; molecule type: double-stranded DNA, one strand shown; matrix: in vitro; tested at: not given; reference: not given; direction: higher = stronger binding
Target: Histone acetyltransferase KAT6A, winged helix 1, GST fusion (KAT6A, Homo sapiens, UniProt Q92794, residues 1-85)
Setting: 8-mer, flanks averaged, mean of 2 arrays, mostly near background
Target sequence (chain): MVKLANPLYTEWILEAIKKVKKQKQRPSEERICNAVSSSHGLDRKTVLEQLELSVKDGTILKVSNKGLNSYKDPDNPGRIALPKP
`GAAGTCCA` has an E-score of -0.219.
For `TACGGCAA`, the E-score was 0.371.
With `CGATTAGC` the E-score was 0.12.
`CTTAGTTA` has an E-score of 0.0255.
`AATGTAAG` has an E-score of -0.133.
With `GTGAGCCA` the E-score was -0.171.

Study 3 — technique: protein-binding microarray; molecule type: double-stranded DNA, one strand shown; matrix: in vitro; tested at: not given; direction: higher = stronger binding
Target: TATA-box-binding protein 1 (TBP1, Arabidopsis thaliana, UniProt P28147, residues 1-200, full length assumed)
Setting: k-mer, scored over probes, only values ≥0.25
Residues (chain): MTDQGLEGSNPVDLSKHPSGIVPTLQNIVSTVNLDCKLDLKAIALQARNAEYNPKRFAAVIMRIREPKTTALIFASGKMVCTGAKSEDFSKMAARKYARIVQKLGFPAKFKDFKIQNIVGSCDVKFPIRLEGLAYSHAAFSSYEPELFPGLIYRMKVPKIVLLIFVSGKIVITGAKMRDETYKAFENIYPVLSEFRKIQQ
`ACATTTA` has an E-score of 0.385.
The E-score of `ATATATA` is reported as 0.495.
With `AATTTTA` the E-score was 0.358.
`AATATGA` has an E-score of 0.312.

Single results of other studies
For `PhoQ, residues 284 288 289 292 302 303 AGHLVA`, the fold induction was 10.5 (PhoP, residues 12 14 15 18 19 SEGLL (Escherichia coli, UniProt P23836); Sort-seq, measured: YFP reporter; E. coli; PhoQ-PhoP variant library, added: 10 µM Mg2+; reference: high Mg2+ state, higher = stronger signaling).

For quick reference, copied from above (study 3):
`ACATTTA` has an E-score of 0.385.
The E-score of `ATATATA` is reported as 0.495.
